# Measurements collected from several papers.
# Each numbered part is a random draw from the data of one study; scales do not carry over between parts. Substitutions count along the parent as printed.
# UniProt P42685, sequence (whole entry, looked up): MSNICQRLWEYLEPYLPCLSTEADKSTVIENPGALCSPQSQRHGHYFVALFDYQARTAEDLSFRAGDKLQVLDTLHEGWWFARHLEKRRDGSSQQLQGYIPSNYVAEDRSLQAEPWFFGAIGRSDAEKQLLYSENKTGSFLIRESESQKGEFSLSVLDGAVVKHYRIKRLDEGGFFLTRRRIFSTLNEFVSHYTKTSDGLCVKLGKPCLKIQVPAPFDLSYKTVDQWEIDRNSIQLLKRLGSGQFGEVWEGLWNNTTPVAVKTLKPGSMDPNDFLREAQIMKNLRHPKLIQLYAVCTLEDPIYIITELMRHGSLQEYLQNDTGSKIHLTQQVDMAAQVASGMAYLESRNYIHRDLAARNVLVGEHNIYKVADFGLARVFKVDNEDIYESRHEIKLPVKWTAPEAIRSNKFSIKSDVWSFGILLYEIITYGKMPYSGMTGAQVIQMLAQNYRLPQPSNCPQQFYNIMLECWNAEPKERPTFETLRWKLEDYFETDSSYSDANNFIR
# UniProt P10398, sequence (whole entry, looked up): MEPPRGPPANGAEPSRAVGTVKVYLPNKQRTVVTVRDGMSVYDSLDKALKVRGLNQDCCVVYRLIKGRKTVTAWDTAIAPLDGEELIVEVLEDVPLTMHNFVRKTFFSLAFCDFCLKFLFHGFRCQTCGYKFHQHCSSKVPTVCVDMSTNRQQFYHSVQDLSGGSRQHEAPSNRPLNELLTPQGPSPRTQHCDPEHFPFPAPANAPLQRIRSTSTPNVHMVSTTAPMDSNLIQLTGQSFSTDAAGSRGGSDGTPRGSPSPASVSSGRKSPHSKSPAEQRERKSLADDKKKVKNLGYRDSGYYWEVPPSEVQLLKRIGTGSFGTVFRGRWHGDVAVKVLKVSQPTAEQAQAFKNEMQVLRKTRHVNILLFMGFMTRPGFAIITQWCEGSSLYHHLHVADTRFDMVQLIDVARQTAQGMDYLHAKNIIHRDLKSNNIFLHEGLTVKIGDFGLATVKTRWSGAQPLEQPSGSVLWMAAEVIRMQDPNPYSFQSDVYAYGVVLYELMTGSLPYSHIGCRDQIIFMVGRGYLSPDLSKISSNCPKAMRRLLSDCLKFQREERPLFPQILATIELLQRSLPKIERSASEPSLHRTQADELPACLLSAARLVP
# UniProt Q9UHD2, sequence (whole entry, looked up): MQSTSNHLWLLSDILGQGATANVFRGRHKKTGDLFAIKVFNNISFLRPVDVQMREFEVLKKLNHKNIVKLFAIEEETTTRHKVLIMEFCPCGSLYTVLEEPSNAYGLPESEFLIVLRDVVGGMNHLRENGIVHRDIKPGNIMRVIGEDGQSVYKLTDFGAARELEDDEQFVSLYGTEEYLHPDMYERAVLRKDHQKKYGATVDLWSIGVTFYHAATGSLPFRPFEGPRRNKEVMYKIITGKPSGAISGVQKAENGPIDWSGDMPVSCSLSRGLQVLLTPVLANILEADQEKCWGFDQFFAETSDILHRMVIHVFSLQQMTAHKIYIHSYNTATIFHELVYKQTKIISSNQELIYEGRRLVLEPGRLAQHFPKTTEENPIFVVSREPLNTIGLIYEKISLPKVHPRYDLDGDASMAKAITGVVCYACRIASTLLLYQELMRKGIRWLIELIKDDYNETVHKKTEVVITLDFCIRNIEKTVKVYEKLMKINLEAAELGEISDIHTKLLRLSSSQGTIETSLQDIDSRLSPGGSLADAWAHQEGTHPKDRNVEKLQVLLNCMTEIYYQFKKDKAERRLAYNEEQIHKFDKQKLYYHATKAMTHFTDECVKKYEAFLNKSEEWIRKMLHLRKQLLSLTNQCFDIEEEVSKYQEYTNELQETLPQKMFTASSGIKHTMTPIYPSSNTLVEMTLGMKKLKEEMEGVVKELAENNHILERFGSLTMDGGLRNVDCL
# UniProt Q9HBY8, sequence (whole entry, looked up): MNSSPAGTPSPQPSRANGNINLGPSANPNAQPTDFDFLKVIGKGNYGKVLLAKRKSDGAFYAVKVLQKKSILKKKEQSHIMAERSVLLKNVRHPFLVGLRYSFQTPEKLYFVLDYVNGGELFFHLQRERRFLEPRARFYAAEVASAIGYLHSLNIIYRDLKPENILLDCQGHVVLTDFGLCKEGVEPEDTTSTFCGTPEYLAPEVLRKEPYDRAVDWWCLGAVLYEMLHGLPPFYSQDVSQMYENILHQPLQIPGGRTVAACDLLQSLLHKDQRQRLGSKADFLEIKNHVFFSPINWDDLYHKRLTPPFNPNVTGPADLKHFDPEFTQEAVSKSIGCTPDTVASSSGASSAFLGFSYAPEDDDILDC
# UniProt P27361, sequence (whole entry, looked up): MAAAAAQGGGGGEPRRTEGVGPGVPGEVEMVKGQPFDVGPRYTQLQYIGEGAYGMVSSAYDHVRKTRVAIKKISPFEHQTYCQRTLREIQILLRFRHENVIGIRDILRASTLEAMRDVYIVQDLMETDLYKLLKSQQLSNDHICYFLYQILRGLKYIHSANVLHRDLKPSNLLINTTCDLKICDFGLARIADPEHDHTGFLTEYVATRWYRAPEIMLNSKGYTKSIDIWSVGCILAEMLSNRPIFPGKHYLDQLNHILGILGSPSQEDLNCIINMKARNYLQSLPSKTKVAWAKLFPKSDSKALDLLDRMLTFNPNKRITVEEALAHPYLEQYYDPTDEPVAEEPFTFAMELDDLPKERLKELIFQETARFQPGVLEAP
# UniProt P42684, sequence (whole entry, looked up): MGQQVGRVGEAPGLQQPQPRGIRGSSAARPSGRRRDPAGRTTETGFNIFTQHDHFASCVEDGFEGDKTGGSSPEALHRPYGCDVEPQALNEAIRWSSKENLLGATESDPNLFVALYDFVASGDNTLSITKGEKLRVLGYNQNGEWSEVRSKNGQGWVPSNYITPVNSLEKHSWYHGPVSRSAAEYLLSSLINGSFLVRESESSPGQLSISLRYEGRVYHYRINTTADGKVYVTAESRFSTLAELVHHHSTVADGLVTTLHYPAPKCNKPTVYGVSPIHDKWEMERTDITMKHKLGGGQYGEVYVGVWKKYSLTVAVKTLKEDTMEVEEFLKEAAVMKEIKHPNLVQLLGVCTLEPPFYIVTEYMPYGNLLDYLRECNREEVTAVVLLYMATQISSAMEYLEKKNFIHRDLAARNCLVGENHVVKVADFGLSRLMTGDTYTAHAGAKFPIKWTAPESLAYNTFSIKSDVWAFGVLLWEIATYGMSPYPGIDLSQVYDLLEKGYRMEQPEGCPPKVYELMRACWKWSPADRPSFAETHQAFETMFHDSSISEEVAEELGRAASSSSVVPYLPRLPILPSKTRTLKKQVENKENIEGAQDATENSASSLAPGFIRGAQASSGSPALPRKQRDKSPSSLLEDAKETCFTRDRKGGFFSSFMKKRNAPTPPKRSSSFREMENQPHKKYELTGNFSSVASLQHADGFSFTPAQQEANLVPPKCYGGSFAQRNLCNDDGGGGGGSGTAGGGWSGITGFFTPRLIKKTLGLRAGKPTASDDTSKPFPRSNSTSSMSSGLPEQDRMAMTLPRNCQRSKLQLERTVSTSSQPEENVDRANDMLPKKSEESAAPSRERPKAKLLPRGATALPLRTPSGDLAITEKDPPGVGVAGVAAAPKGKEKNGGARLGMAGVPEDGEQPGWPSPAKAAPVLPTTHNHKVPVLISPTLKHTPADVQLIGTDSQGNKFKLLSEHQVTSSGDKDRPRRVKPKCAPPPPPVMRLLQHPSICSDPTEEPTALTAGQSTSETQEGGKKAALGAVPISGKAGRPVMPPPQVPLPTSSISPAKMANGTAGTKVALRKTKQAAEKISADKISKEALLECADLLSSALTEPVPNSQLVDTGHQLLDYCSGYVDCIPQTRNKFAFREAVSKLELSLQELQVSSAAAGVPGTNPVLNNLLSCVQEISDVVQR
# UniProt Q12866, sequence (whole entry, looked up): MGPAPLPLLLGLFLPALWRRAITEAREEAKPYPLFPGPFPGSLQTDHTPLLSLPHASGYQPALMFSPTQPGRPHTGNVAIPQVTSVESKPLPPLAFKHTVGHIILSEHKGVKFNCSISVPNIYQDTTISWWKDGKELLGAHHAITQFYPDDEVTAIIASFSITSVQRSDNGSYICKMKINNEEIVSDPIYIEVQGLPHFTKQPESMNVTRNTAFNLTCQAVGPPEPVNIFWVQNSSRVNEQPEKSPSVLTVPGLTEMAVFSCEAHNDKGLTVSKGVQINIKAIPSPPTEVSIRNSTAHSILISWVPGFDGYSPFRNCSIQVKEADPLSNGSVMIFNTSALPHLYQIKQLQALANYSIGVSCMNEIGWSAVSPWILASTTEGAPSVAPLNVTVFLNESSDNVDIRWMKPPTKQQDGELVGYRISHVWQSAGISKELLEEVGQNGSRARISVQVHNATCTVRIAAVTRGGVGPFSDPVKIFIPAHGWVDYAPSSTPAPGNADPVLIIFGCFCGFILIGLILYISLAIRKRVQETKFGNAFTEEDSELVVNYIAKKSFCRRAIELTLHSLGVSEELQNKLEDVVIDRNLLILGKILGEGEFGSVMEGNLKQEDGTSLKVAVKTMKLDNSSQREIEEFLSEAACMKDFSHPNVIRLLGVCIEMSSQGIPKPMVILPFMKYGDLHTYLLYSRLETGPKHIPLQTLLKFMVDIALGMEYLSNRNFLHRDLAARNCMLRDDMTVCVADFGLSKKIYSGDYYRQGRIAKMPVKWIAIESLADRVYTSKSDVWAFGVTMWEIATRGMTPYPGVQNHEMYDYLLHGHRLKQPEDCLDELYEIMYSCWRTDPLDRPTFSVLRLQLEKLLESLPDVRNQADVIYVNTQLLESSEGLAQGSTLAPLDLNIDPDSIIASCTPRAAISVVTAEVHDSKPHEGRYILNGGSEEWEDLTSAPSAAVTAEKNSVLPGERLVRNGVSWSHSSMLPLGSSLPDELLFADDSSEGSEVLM

# Sample 1 — target: CCNF, cyclin fold, Cln2 fusion (human); technique: yeast growth competition, sequencing; matrix: yeast; setting: strong parent motif; relative to: not given; direction: higher = stronger binding
# Parent: SCAPER docking peptide (human); SNARRSLNFGGST
Change,normalised enrichment score
SNARRSKNFGGST [L7K],1.65
SNARRSLNFGGET [S12E],7.41
SNARRSLYFGGST [N8Y],8.1
SNARRSLNFGMST [G11M],7.25
SNARRSLNFGSST [G11S],7.93
SNARPSLNFGGST [R5P],-0.194
SNARRSLNIGGST [F9I],1.63
SNARRSLNFGGSG [T13G],7.05

# Sample 2 — SMILES: Cc1cc(Nc2nc(-c3ccccc3)nc3ccccc23)n[nH]1; read-out: enzyme activity; action: inhibitor; tested at: 0.5 µM; relative to: control
target,remaining activity [%]
"Mitogen-activated protein kinase 3 (MAPK3, Homo sapiens, UniProt P27361)",80.8
"MAP kinase-activated protein kinase 2 (MAPKAPK2, Homo sapiens, UniProt P49137)",100
"Serine/threonine-protein kinase Nek1 (NEK1, Homo sapiens, UniProt Q96PY6)",93
"Macrophage-stimulating protein receptor (MST1R, Homo sapiens, UniProt Q04912)",96.6
"Tyrosine-protein kinase FRK (FRK, Homo sapiens, UniProt P42685)",72.5
"Casein kinase I isoform gamma-2 (CSNK1G2, Homo sapiens, UniProt P78368)",69.3
"Activin receptor type-1B (ACVR1B, Homo sapiens, UniProt P36896)",103
"Tyrosine-protein kinase JAK3 (JAK3, Homo sapiens, UniProt P52333)",96.7
"Tyrosine-protein kinase Mer (MERTK, Homo sapiens, UniProt Q12866)",72.2
"Tyrosine-protein kinase ABL2 (ABL2, Homo sapiens, UniProt P42684)",42.5
"Serine/threonine-protein kinase TBK1 (TBK1, Homo sapiens, UniProt Q9UHD2)",53.8
"Serine/threonine-protein kinase A-Raf (ARAF, Homo sapiens, UniProt P10398)",89.7
"Ribosomal protein S6 kinase alpha-2 (RPS6KA2, Homo sapiens, UniProt Q15349)",50.7
"Mitogen-activated protein kinase kinase kinase 5 (MAP3K5, Homo sapiens, UniProt Q99683)",99.5

# Sample 3 — read-out: cell-free assay; technique: competition with immobilised ligand; tested at: 1 µM
# SMILES: C[C@H](c1ccc(F)cc1)N(Cc1cccc(C(=O)O)c1)C(=O)c1cnc2ccccc2c1
target,remaining binding
"Epidermal growth factor receptor (EGFR, Homo sapiens, UniProt P00533, L858R/T790M)",96%
"Serine/threonine-protein kinase TNNI3K (TNNI3K, Homo sapiens, UniProt Q59H18)",97%
"Serine/threonine-protein kinase Sgk2 (SGK2, Homo sapiens, UniProt Q9HBY8)",93%

# Sample 4 — technique: RNA Bind-n-Seq; molecule type: RNA; matrix: in vitro; tested at: 20 nM; setting: 6-mer, flanks averaged, single round; together with: 150 mM KCl; relative to: input library; direction: higher = stronger binding
# Target: TAR DNA-binding protein 43, full length, His tag (TARDBP, Homo sapiens, UniProt Q13148, residues 1-414)
Oligonucleotide,6-mer enrichment (R)
GGAGGA,3.76
CGGUCG,1.26
AAAGGG,2.04
CAGAGU,0.869
AUGGGU,1.89
CCAUAA,0.632
UGUACU,0.609
CGGUAU,0.773

# Some of these lines once more (sample 2):
target,remaining activity [%]
"Macrophage-stimulating protein receptor (MST1R, Homo sapiens, UniProt Q04912)",96.6
"Tyrosine-protein kinase FRK (FRK, Homo sapiens, UniProt P42685)",72.5
"Casein kinase I isoform gamma-2 (CSNK1G2, Homo sapiens, UniProt P78368)",69.3
"Activin receptor type-1B (ACVR1B, Homo sapiens, UniProt P36896)",103
"Tyrosine-protein kinase JAK3 (JAK3, Homo sapiens, UniProt P52333)",96.7
